Assay results gathered from unrelated publications.
Lines come from different studies, so protocols differ. ± marks the error that the study gave.
Sigmar1: Sigma non-opioid intracellular receptor 1 (Sigmar1, Rattus norvegicus, UniProt Q9R0C9)
APP Aβ1-40: Amyloid-beta precursor protein, Aβ1-40 (APP, Homo sapiens, UniProt P05067)
EPHB3: Ephrin type-B receptor 3 (EPHB3, Homo sapiens, UniProt P54753)
CAPN1: Calpain-1 catalytic subunit (CAPN1, Homo sapiens, UniProt P07384)
MGLL: Monoglyceride lipase (MGLL, Homo sapiens, UniProt Q99685)
GBA2: Beta-glucosidase (GBA2, Homo sapiens, UniProt Q9HCG7)
CTSB: Cathepsin B (CTSB, Homo sapiens, UniProt P07858)
SLC6A2: Sodium-dependent noradrenaline transporter (SLC6A2, Homo sapiens, UniProt P23975)
SIRT6: NAD-dependent protein deacylase sirtuin-6 (SIRT6, Homo sapiens, UniProt Q8N6T7)
SIRT1: NAD-dependent protein deacetylase sirtuin-1 (SIRT1, Homo sapiens, UniProt Q96EB6)

Chains of the proteins cited; added tags and fusions are not shown.
UniProt Q9R0C9, whole entry: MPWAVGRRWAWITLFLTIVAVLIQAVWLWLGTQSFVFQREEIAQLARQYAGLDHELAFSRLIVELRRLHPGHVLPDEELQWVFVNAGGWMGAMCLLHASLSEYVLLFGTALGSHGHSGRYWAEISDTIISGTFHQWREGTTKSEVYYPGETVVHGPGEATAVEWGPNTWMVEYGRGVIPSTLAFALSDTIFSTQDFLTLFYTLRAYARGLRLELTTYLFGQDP
UniProt P05067, whole entry, looked up: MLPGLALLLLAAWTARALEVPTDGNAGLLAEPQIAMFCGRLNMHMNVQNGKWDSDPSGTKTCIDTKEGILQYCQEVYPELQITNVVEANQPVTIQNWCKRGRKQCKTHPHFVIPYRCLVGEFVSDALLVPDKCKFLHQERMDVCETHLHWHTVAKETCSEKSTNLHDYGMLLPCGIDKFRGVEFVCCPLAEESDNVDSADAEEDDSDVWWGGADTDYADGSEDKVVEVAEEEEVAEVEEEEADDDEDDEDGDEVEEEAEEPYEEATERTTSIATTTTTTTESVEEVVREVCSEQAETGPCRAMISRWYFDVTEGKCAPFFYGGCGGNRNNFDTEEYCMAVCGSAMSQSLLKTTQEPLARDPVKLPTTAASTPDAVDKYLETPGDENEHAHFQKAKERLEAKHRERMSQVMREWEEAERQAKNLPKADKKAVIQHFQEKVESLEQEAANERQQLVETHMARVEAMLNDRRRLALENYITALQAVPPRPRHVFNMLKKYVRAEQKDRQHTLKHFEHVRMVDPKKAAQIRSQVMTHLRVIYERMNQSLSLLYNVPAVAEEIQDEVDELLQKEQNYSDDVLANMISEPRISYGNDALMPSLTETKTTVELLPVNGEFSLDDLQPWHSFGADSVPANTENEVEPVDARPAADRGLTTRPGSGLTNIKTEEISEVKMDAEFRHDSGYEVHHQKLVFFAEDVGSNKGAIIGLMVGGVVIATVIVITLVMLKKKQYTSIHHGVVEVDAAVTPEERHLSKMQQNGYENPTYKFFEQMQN
UniProt Q99685, whole entry: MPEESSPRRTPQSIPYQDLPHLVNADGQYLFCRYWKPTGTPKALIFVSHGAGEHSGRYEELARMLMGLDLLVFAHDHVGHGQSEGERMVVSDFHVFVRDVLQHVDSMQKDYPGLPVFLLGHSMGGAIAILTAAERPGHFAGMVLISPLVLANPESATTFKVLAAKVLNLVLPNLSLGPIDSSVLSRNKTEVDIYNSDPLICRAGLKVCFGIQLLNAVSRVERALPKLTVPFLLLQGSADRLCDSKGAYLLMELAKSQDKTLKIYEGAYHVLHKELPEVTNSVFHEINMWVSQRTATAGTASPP
UniProt Q9HCG7, whole entry: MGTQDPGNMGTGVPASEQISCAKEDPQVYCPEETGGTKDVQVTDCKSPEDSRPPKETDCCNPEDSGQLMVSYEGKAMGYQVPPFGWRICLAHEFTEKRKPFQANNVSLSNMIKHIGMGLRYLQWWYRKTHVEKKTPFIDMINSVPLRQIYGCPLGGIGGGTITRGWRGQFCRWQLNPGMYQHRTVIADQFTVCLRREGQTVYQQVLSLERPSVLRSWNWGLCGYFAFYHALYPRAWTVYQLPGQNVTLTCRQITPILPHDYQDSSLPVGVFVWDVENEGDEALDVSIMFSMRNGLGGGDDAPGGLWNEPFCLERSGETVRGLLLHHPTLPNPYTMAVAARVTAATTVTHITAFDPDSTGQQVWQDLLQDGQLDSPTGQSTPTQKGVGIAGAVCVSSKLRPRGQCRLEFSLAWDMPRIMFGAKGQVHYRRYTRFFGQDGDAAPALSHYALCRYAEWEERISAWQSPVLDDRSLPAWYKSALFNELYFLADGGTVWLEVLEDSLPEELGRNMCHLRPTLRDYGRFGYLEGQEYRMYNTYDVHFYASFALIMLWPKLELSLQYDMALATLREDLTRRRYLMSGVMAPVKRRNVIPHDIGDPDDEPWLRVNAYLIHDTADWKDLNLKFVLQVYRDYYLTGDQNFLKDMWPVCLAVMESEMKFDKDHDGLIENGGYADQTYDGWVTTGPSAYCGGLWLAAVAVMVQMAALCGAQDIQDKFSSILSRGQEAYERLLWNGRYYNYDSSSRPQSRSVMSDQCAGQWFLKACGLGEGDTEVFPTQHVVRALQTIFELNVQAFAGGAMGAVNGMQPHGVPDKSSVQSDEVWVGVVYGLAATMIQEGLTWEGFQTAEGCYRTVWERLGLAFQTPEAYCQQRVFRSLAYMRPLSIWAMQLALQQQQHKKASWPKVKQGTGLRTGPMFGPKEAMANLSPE
UniProt P23975, whole entry: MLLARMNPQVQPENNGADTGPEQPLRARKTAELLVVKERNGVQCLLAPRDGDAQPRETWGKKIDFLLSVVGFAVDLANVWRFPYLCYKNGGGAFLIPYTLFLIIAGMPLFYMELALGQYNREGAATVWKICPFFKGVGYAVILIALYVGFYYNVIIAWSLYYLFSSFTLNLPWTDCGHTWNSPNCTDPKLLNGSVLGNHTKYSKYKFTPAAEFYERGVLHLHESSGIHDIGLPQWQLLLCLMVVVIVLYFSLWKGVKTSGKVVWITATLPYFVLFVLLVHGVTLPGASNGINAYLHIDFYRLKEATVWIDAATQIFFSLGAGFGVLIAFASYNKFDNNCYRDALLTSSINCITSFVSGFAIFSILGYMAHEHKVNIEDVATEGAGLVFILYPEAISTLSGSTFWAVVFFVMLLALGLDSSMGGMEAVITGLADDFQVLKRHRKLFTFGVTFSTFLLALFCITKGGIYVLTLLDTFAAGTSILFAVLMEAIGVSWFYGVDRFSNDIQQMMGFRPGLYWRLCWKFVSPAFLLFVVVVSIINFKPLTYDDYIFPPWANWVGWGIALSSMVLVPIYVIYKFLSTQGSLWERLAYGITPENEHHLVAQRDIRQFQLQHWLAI
UniProt Q8N6T7, whole entry: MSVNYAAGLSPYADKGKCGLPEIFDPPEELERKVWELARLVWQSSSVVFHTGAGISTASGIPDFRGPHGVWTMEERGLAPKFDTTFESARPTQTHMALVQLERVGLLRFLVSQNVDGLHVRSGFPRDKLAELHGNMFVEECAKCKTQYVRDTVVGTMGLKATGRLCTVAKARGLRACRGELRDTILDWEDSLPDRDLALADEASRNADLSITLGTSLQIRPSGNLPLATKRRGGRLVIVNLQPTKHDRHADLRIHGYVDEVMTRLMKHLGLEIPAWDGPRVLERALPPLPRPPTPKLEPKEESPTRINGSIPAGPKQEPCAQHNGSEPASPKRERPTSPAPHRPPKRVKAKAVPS
UniProt Q01959, whole entry: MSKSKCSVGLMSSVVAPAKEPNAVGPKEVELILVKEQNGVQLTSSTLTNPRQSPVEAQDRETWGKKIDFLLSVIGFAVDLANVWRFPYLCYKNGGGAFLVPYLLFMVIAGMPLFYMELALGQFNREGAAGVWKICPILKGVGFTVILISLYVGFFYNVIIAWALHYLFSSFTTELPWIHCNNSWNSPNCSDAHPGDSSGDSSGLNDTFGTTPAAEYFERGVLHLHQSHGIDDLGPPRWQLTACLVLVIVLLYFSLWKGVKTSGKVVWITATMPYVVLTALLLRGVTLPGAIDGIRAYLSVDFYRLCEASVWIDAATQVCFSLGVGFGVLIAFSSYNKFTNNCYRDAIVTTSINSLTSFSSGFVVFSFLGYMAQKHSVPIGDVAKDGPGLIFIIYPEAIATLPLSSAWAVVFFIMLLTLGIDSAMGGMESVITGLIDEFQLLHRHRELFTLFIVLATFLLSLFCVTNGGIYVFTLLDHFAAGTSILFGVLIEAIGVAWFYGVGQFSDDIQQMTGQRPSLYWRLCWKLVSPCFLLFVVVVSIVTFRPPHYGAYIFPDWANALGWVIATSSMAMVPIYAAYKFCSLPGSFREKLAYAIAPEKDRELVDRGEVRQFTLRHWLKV
UniProt P80457, whole entry: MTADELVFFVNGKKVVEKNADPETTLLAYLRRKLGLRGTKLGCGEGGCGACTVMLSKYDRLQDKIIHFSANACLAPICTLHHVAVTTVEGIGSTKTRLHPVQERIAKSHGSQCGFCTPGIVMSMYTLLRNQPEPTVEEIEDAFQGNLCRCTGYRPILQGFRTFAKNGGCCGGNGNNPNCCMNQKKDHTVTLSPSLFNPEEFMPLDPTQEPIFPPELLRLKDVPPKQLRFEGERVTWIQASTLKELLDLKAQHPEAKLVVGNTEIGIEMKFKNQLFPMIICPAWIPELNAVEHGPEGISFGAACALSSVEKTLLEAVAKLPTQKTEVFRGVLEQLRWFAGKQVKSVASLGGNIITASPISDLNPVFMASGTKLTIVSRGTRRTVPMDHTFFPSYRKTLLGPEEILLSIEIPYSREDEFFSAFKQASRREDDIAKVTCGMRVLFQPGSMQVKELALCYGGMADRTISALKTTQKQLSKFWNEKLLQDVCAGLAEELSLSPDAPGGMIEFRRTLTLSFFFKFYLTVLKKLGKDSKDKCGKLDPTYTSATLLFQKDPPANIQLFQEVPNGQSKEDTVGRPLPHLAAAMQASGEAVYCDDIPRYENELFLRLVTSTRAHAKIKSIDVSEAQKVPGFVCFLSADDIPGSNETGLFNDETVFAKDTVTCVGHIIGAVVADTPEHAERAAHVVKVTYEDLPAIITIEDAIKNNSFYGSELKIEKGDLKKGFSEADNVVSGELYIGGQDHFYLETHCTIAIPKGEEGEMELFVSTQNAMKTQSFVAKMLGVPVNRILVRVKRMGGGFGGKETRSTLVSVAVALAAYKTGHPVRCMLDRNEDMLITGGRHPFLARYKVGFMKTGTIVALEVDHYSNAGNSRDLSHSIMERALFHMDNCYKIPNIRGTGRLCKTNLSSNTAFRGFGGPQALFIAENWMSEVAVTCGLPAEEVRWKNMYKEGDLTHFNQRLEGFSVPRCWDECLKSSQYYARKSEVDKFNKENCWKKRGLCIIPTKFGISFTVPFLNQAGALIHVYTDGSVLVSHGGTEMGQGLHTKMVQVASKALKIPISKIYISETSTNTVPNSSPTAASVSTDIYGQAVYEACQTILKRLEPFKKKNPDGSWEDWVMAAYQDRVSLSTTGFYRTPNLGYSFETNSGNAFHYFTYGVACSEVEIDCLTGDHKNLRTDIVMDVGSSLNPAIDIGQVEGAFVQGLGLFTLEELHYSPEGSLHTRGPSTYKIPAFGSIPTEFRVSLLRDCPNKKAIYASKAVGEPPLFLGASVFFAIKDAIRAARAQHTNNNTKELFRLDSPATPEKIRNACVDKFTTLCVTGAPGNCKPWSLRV
UniProt Q13976, whole entry: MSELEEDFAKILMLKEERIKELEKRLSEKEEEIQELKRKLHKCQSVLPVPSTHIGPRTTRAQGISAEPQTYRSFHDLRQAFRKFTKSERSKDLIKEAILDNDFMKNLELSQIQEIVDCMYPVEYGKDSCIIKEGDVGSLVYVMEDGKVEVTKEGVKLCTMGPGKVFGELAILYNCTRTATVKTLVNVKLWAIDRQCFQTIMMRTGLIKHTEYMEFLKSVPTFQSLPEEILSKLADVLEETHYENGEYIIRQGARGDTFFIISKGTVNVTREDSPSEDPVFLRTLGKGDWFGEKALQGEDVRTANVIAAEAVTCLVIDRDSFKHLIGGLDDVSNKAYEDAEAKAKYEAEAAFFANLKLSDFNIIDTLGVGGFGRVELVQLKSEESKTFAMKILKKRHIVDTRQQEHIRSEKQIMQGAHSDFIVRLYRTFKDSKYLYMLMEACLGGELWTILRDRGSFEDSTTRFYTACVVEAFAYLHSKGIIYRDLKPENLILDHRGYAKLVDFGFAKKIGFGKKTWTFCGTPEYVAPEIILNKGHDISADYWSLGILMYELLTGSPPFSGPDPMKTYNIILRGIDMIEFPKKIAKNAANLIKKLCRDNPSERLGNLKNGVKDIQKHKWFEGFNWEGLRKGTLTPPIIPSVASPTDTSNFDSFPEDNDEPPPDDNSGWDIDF
UniProt Q15910, whole entry: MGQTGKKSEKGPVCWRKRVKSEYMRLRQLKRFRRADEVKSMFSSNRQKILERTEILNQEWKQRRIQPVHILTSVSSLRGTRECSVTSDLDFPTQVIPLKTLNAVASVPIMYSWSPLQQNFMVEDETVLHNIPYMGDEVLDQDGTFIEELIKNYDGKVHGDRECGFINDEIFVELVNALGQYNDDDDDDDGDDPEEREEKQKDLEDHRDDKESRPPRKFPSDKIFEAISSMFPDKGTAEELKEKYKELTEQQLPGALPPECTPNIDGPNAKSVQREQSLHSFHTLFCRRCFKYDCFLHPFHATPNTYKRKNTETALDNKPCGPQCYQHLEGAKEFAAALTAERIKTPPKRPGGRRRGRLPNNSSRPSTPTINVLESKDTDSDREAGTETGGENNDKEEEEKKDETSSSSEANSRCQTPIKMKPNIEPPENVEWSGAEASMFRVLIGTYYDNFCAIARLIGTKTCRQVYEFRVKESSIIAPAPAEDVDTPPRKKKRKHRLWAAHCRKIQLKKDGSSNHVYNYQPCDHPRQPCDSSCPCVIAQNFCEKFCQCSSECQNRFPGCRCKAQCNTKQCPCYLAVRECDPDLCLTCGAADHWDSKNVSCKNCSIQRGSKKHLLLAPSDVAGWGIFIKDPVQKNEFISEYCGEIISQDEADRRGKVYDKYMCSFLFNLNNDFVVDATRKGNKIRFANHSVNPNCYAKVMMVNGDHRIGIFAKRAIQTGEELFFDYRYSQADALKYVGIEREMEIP

SMILES | target | test | system | setting | how to read | inhibition
C/C(=N\OCCN1CCN(C2COC2)CC1)c1ccc(C(F)(F)F)cc1 | Sigmar1 | radioligand binding | rat | 10 µM | – | 93.3%
COc1ccc2[nH]cc(/C=C/c3cccnc3)c2c1 | APP Aβ1-40 | Aβ40 aggregation, thioflavin T fluorescence | – | 25 µM | – | 27%
O=C(CCc1ccccc1)N1CCC(O)(Cn2cnc3cc(Cl)ccc3c2=O)CC1 | USP7 (Homo sapiens, UniProt Q93009, Y514A) | enzyme activity | – | up to 100 µM, mutant catalytic domain, with: Ub-AMC | – | no inhibition
O=C(Nc1cccc(F)c1)c1cc(S(=O)(=O)N2CCOCC2)c(Cl)cc1Cl | Autotaxin (ENPP2, Homo sapiens, UniProt Q13822) | enzyme activity | – | 10 µM, 2 h, 37 °C, with: 100 µM LPC 18:0 | – | 43.6 ± 2.6%
O=C(CCl)Nc1ccc2c(Nc3ccccc3)ncnc2c1 | EPHB3 | kinase activity, inhibitor, kinase panel | – | 300 nM | – | inhibited
Nc1ccc(-c2cc(Cl)c(Cl)c3[nH]c4c(c23)CN(C(=O)CO)CC4)cn1 | Cgas (Mus musculus, UniProt Q8C6L5) | inhibitor, pyrophosphatase-coupled | – | concentration not given | – | inactive
N#Cc1ccc2[nH]cc(/C=C/c3cccc(F)c3)c2c1 | APP Aβ1-40 | Aβ40 aggregation, thioflavin T fluorescence | – | 25 µM | – | 0%
CCNC(=O)C(=O)[C@H](Cc1ccccc1)NC(=O)[C@H]1CCC(=O)N1Cc1ccc(F)cc1 | CAPN1 | enzyme activity, inhibitor | – | 1 µM | – | 85.2%
CCOC(=O)C1=C(C)NC2=C(C(=O)CC(C)(C)C2)C1c1ccc(OCC(=O)NN=Cc2cccc(C=O)c2)cc1OCC(=O)NN=Cc1cccc(C=O)c1 (stereo not drawn) | MAL32 (Saccharomyces cerevisiae, UniProt P38158) | – | – | 0.5 mM, pH 6.8 | – | 92.5%
COc1ccc2c(c1)CN(C(=O)OC(C(F)(F)F)C(F)(F)F)C2 | MGLL | inhibitor, fluorescence | – | 1 µM, with: AHMMCE substrate | – | inactive
C/C(=N\OCCN1CCC(N2CCOCC2)CC1)c1ccc(C(F)(F)F)cc1 | Sigmar1 | radioligand binding | rat | 10 µM | – | 82.7%
C[C@H](OCCCCCN1C[C@H](O)[C@@H](O)[C@H](O)[C@@H]1CO)c1ccc(-c2ccccc2)cc1 | GBA2 | inhibitor, FluoPol-ABPP competition | GBA2-overexpressing cell lysate | 0.1 µM | – | 0.2%
O=C(OC(C(F)(F)F)C(F)(F)F)N1CCc2cccc(Br)c2C1 | MGLL | inhibitor, fluorescence | – | 1 µM, with: AHMMCE substrate | – | inactive
O=C(NC1CC1)C(=O)[C@H](Cc1ccccc1)NC(=O)[C@H]1CCC(=O)N1Cc1ccccc1 | CTSB | enzyme activity, inhibitor | – | 1 µM | – | 13.2%
COC(=O)/C=C/CNC(=O)c1c(C)n(C2CCCC2)c2ccc(OC)cc12 | E3 ubiquitin-protein ligase NEDD4 (Homo sapiens, UniProt P46934) | ubiquitination, inhibitor, Ub-TR-FRET | – | 100 µM, HECT domain | – | 70.9 ± 11.9%
CC(=O)Nc1ccc(/C=C/c2c[nH]c3ccc(C#N)cc23)cc1 | APP Aβ1-40 | Aβ40 aggregation, thioflavin T fluorescence | – | 25 µM | – | 27%
CNc1nc(C#Cc2ccc(Cl)s2)nc2c1ncn2[C@H]1[C@H](O)[C@H](O)[C@]2(C(=O)OC(C)C)C[C@H]12 | SLC6A2 | binding, radioligand binding | HEK293 | 10 µM, negative means enhanced binding, with: [3H]nisoxetine | – | 37 ± 2%
OC[C@@H]1[C@@H](O)[C@H](O)[C@@H](O)CN1CCCCCOCc1ccc(-c2cccnc2)cc1 | GBA2 | inhibitor, FluoPol-ABPP competition | GBA2-overexpressing cell lysate | 0.1 µM | – | 4.4%
N#CC[C@@]12C[C@@H]1[C@@H](n1cnc3c(NCc4cccc(Cl)c4)nc(I)nc31)[C@H](O)[C@@H]2O | SLC6A2 | binding, radioligand binding | HEK293 | 10 µM, negative means enhanced binding, with: [3H]nisoxetine | – | 33 ± 7%
CCCSc1nc(N[C@@H]2C[C@H]2c2ccc(F)c(F)c2)c2nnn([C@@H]3C[C@H](O)[C@@H](O)[C@H]3O)c2n1 | SLC6A3 (Homo sapiens, UniProt Q01959) | binding | – | concentration not given, rat free Cmax | – | no inhibition
C/C(=N\OCCN1CCCc2ccccc2C1)c1ccc(C(F)(F)F)cc1 | Sigmar1 | radioligand binding | rat | 10 µM | – | 95.1%
O=C(CF)c1ccc2c(Nc3ccccc3)ncnc2c1 | EPHB3 | kinase activity, inhibitor | – | 2 µM | relative to: DMSO | > 80%
CC[C@@]1(c2cccc(C)c2)C(=O)N(C(=O)OC)N1C(=O)OC | Protein phosphatase methylesterase 1 (Mus musculus, UniProt Q8BVQ5) | inhibitor, competitive ABPP-MudPIT | mouse brain proteome | 2 µM | relative to: DMSO | inhibited
CCOC(=O)[C@@]12C[C@@H]1[C@@H](n1cnc3c(NC)nc(C#Cc4ccc(Cl)s4)nc31)[C@H](O)[C@@H]2O | SLC6A2 | binding, radioligand binding | HEK293 | 10 µM, negative means enhanced binding, with: [3H]nisoxetine | – | 34 ± 6%

SMILES | target | test | system | setting | how to read | inhibition
CN(C)C(=O)Cn1cc(-c2ccc(-c3cncc4ccncc34)cc2)cn1 | CDK1 (Homo sapiens, UniProt P06493) | enzyme activity, SelectScreen | – | concentration not given | – | no inhibition
CS(=O)(=O)Oc1cccc(/C=C/c2c[nH]c3ccc(F)cc23)c1 | APP Aβ1-40 | Aβ40 aggregation, thioflavin T fluorescence | – | 25 µM | – | 73%
NCc1ccc(C(=O)NOCc2ccc(C(F)(F)F)cc2)cc1 | SIRT6 | deacetylase activity, fluorogenic | – | 100 µM, with: RHKK-ac-AMC | – | 88.4 ± 0.33%
Oc1ccccc1C1=NCCCO1 | Adenosine deaminase (ADA, Bos taurus, UniProt P56658) | enzyme activity, inhibitor, fluorescence | – | 100 µM | – | < 10%
C/C(=N\OCCN1CCN(C)CC1)c1ccc(C(F)(F)F)cc1 | Sigmar1 | radioligand binding | rat | 10 µM | – | 109%
COc1ccc2[nH]cc(/C=C/c3cccc(F)c3)c2c1 | APP Aβ1-40 | Aβ40 aggregation, thioflavin T fluorescence | – | 25 µM | – | 41%
CNc1nc(C#Cc2ccc(Cl)s2)nc2c1ncn2[C@H]1[C@H](O)[C@H](O)[C@]2(C#N)C[C@H]12 | SLC6A2 | binding, radioligand binding | HEK293 | 10 µM, negative means enhanced binding, with: [3H]nisoxetine | – | -39 ± 11%
CS(=O)(=O)Oc1cccc(/C=C/c2c[nH]c3ccc(C#N)cc23)c1 | APP Aβ1-40 | Aβ40 aggregation, thioflavin T fluorescence | – | 25 µM | – | 57%
O=C(OC(C(F)(F)F)C(F)(F)F)N1Cc2cccc(Br)c2C1 | MGLL | inhibitor, fluorescence | – | 1 µM, with: AHMMCE substrate | – | inactive
N#Cc1ccc2[nH]cc(/C=C/c3cccnc3)c2c1 | APP Aβ1-40 | Aβ40 aggregation, thioflavin T fluorescence | – | 25 µM | – | 11%
O=C(O)c1cc2c(s1)CCC2 | Protein tyrosine phosphatase type IVA 3, with CNNM4 CBS domain (PTP4A3, Homo sapiens, UniProt O75365) | protein-protein interaction, HTRF | – | 10 µM | – | 60.2 ± 0.4%
O=C(NS(=O)(=O)c1cccc([N+](=O)[O-])c1)c1cc2ccccc2n1Cc1ccc(Br)c2ccccc12 | XDH (Bos taurus, UniProt P80457) | enzyme activity, spectrophotometry | – | 10 µM | – | 5.31%
O=C(NCc1ccc(F)cc1)C(=O)[C@H](Cc1ccccc1)NC(=O)[C@H]1CCC(=O)N1Cc1ccc(F)cc1 | CAPN1 | enzyme activity, inhibitor | – | 1 µM | – | 96.7%
OC[C@H]1[C@@H](O)[C@H](O)[C@@H](O)CN1CCCCCOCc1ccc(Br)cc1 | GBA2 | inhibitor, FluoPol-ABPP competition | GBA2-overexpressing cell lysate | 0.1 µM | – | 4.8%
CCOC(=O)/C=C/CNCCCCN1c2ccccc2CCc2ccc(Cl)cc21 | E3 ubiquitin-protein ligase NEDD4, HECT domain (Homo sapiens, UniProt P46934, L972F) | ubiquitin chain formation, inhibitor | – | 10 µM, 30 min | – | no inhibition
CS(=O)(=O)Cc1onc(-c2cccc(Cl)c2)c1-c1ccnc(N[C@@H]2CCN(Cc3nccs3)C2)n1 | PRKG1 (Homo sapiens, UniProt Q13976) | kinase activity, inhibitor, IMAP | – | 10 µM, with: FAM-IP3R peptide | – | 13 ± 4%
CCCCCCCCCCCCNC(=S)NCCCC[C@H](NC(=O)CCCCCCCC)C(=O)N[C@H](C)C(=O)N[C@@H](CCCNC(=N)N)C(N)=O | SIRT2 (Homo sapiens, UniProt Q8IXJ6) | demyristoylation, inhibitor | – | 100 µM, with: myristoylated peptide 50 µM | – | 47%
COc1ccc(CN(C)CCO/N=C(\C)c2ccc(C(F)(F)F)cc2)cc1 | Sigmar1 | radioligand binding | rat | 10 µM | – | 87.8%
CC(=O)Nc1ccc(/C=C/c2c[nH]c3ccc(F)cc23)cc1 | APP Aβ1-40 | Aβ40 aggregation, thioflavin T fluorescence | – | 25 µM | – | 72%
CCC1NC(=O)C(CCCNC(=N)N)NC(=O)C(C)(NC(=O)C(C)C)CCCCNC(=O)C(c2ccccc2)NC1=O (stereo not drawn) | Histone-lysine N-methyltransferase EZH2, PRC2 complex (EZH2, Homo sapiens, UniProt Q15910) | methyltransferase activity, inhibitor | – | up to 500 µM | – | no inhibition
CCCCCCCCCCCCNC(=S)NCCCC[C@H](NC(=O)c1ccccc1)C(=O)N[C@H](C)C(=O)N[C@@H](CCCNC(=N)N)C(N)=O | SIRT1 | deacetylation, inhibitor | – | 1 µM, with: acetylated peptide 50 µM | – | 49%
O=C(NOCc1ccccc1)c1cccc([N+](=O)[O-])c1 | SIRT6 | deacetylase activity, fluorogenic | – | 100 µM, with: RHKK-ac-AMC | – | 16.8 ± 2.98%
CCNC(=O)C(=O)[C@H](Cc1ccccc1)NC(=O)[C@H]1CCC(=O)N1Cc1ccccc1 | CTSB | enzyme activity, inhibitor | – | 1 µM | – | 0%
CCCCCCCCCCCCNC(=S)NCCCC[C@H](NS(=O)(=O)c1ccccc1)C(=O)N[C@H](C)C(=O)N[C@@H](CCCNC(=N)N)C(N)=O | SIRT1 | deacetylation, inhibitor | – | 1 µM, with: acetylated peptide 50 µM | – | 21%

A few entries again:
SMILES | target | test | system | setting | how to read | inhibition
OC[C@H]1[C@@H](O)[C@H](O)[C@@H](O)CN1CCCCCOCc1ccc(Br)cc1 | GBA2 | inhibitor, FluoPol-ABPP competition | GBA2-overexpressing cell lysate | 0.1 µM | – | 4.8%
CCOC(=O)/C=C/CNCCCCN1c2ccccc2CCc2ccc(Cl)cc21 | E3 ubiquitin-protein ligase NEDD4, HECT domain (Homo sapiens, UniProt P46934, L972F) | ubiquitin chain formation, inhibitor | – | 10 µM, 30 min | – | no inhibition
CS(=O)(=O)Cc1onc(-c2cccc(Cl)c2)c1-c1ccnc(N[C@@H]2CCN(Cc3nccs3)C2)n1 | PRKG1 (Homo sapiens, UniProt Q13976) | kinase activity, inhibitor, IMAP | – | 10 µM, with: FAM-IP3R peptide | – | 13 ± 4%
CCCCCCCCCCCCNC(=S)NCCCC[C@H](NC(=O)CCCCCCCC)C(=O)N[C@H](C)C(=O)N[C@@H](CCCNC(=N)N)C(N)=O | SIRT2 (Homo sapiens, UniProt Q8IXJ6) | demyristoylation, inhibitor | – | 100 µM, with: myristoylated peptide 50 µM | – | 47%
COc1ccc(CN(C)CCO/N=C(\C)c2ccc(C(F)(F)F)cc2)cc1 | Sigmar1 | radioligand binding | rat | 10 µM | – | 87.8%
CC(=O)Nc1ccc(/C=C/c2c[nH]c3ccc(F)cc23)cc1 | APP Aβ1-40 | Aβ40 aggregation, thioflavin T fluorescence | – | 25 µM | – | 72%
